# Measured values of several laboratories.
# Parts stem from different laboratories: compare values within a part only. Changes are numbered by the printed parent chain.

# Block 1
# Target: Prothrombin, mature alpha-thrombin (F2, Homo sapiens, UniProt P00734)
# Technique: aptamer microarray, sandwich
# Molecule type: DNA with 2'F-ANA
# Sample: in vitro
# Tested at: 200 nM
# Setting: whole 15-mer aptamer, many near background
# Together with: Cy3 exosite-II aptamer, 400 nM
# Reading: higher = stronger binding
# Oligonucleotide: GGTTGGTGTGGTTGG
Modification,mean fluorescence intensity
2'F-ANA at 1 3 6 9 10 13 14 15,100 a.u.
2'F-ANA at 2 4 5 6 7 12 15,184 a.u.
2'F-ANA at 1 3 4 6 7 8 9 10 11 12 13 14 15,57.2 a.u.
2'F-ANA at 1 2 7 9 10 13 15,49.9 a.u.
2'F-ANA at 3 4 5 6 7 8 13 14,55 a.u.
2'F-ANA at 2 4 5 7 9 13 14,44.9 a.u.
2'F-ANA at 2 3 4 6 7 9 10 12 14 15,167 a.u.
2'F-ANA at 4 7 9 10 11 13 14,59.9 a.u.
2'F-ANA at 1 2 3 4 5 8 13,60.6 a.u.
2'F-ANA at 1 4 5 6 7 9 11 13 14,51.3 a.u.
2'F-ANA at 2 5 7 9 12 15,156 a.u.
2'F-ANA at 1 2 3 6 7 9 10 11 15,59.6 a.u.
2'F-ANA at 3 4 6 7 8 10 11 12 13 14 15,161 a.u.
2'F-ANA at 1 3 4 5 7 10 11 14,44.8 a.u.
2'F-ANA at 1 4 5 7 14,45.9 a.u.
2'F-ANA at 1 2 3 5 6 7 9 11 13 14,191 a.u.
2'F-ANA at 2 3 8 9 10 13 14 15,284 a.u.
2'F-ANA at 1 2 3 4 5 7 9 10 11 12 13,49.2 a.u.
2'F-ANA at 3 4 5 6 9 10 11 13 14 15,51 a.u.
2'F-ANA at 5 7 8 9 10 14,57.8 a.u.
2'F-ANA at 1 2 3 5 6 7 9 13,61.5 a.u.
2'F-ANA at 1 3 5 11 12 13 14 15,58.5 a.u.

# Block 2
# Target: RING finger protein unkempt homolog, zinc fingers 1-6, GST-SBP tag (UNK, Homo sapiens, UniProt Q9C0B0, residues 30-357)
# Sequence of UniProt Q9C0B0 (30-357, looked up): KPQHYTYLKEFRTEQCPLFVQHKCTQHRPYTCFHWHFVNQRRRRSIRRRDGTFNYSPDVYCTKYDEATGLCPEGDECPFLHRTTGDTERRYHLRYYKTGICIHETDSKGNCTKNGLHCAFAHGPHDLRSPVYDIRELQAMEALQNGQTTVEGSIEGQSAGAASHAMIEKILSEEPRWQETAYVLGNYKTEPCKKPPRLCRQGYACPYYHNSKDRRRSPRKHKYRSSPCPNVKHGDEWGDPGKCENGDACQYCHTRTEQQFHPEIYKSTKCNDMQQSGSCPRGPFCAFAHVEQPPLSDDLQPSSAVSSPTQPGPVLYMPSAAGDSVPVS
# Technique: RNA Bind-n-Seq
# Molecule type: RNA
# Sample: in vitro
# Tested at: not given
# Setting: RNA with constant flanks, human and mouse sites, ends assumed
# Reference: input RNA pool
# Reading: higher = stronger binding
# All sequences stand within: GGGAGUUCUACAGUCCGACGAUC … CAACAGAGGAUUGAGCAUCA
Oligonucleotide,bound/input enrichment [ratio]
CUCAAUGUUAAGCCAUUGGCACGAAUUGCAGCAUUUGCUGAUGCUGCCGUAGACCCCAUUGAUUUUCCACUUGCGCCUGCAUAUGCCGUACCUAAGGUUCUUAAAUAUGCAGGACUGAAA,0.141
UGAUAUAUAAACCUUAAGUGAAAUGAAAGAAAAAGAUCUAUUGCAGAUAUCUGAUGGAUGUAGUUUUCUUUUUUUAAAUUAGAAAUGCCACUUCUAUUGUAUUGUCUCACACAUGCUCUA,3.29
UCUUACUCAGGGGAAAAUACAGAAGCUUGGUACCCUCCAGGUCAUGGUGAUAUUUACGCCAGUUUCUACAACUCUGGAUUGCUUGAUACCUUUAUAGGAGAAGGCAAAGAGUAUAUUUUU,0.14
GCGCGGGCGGUAGGAGGGAGGACCGACGCCAAACCCAGACCGCCGCCGUCGUGCUCCUGCCGCAGCCCGGAGCCGGCCGCUUCGGGGCCCUGGCCGCCGGCCUCCCAGCCGCGUUCUCCU,1.32
GUCCUAGCUGAACCAUCAAGGUCUAAUGGAAAUAUGGUUCGUCAUUCUUCGUCUCCAUAUGUAUUGUAUCCACCUGAUAAGCCUUUCCUUAACAGUGAUCUGAGACGCUCCCCAAAUAAG,0.473
GAGAAGACUGGCCACAGUGGCACACUAGAUCCCAAAGUGACUGGUUGUUUAAUUGUGUGCAUUGAACGAGCCACUCGUUUGGUGAAAUCACAACAGAGUGCAGGCAAAGAGUAUGUUGGA,0.302
UACAGCAACAUUUCACCUGUCCAGAUCCACUGGUACAAUACUUCAAAUCCUUUACCUUAUGAACAUAUGAAGCCAAGCUUUCUCAACCCAGCUAAAGAACCUACCUCAGUUUCAGAGAAU,0.185
CCUCUAUUUAGAAGUGUAGGCAAUACCAUUGAGCCUGUCAUCCUGUUCCAGAAGAUGGGAGUGGGCAAGCUUGAGAUGUACGUGCUUAACCCAGUCAAAAGCAGCAAGGAAAUGCAGUAU,0.448

# Block 3
# Target: CCNA1, cyclin fold, Cln2 fusion (human)
# Technique: yeast growth competition, sequencing
# Sample: yeast
# Setting: weak parent motif
# Reference: not given
# Reading: higher = stronger binding
# Starting sequence: PKMYT1 docking peptide (human); SFEPRNLLSLFED
Substitution,normalised enrichment score
D13I,0.0147
P4R,0.297
R5K,0.181
F2I,-0.182
L10S,0.0406
D13F,0.0749
D13N,0.191
D13M,0.126
E12K,-0.126
E12V,-0.154
F11A,0.431
L10R,0.0548
E12D,-0.0105
E3A,0.149
D13V,0.00889
E12P,0.0982
N6A,0.0732
D13S,0.191
E3L,0.245
S1W,0.366
E12I,-0.0225
R5L,0.315
E12F,0.136
D13Q,0.113
P4V,0.00414

# Block 4
# Target: Histone acetyltransferase KAT6A, winged helix 1, GST fusion (KAT6A, Homo sapiens, UniProt Q92794, residues 1-85)
# Technique: protein binding microarray
# Molecule type: double-stranded DNA, one strand shown
# Sample: in vitro
# Tested at: not given
# Setting: 8-mer, flanks averaged, mean of 2 arrays, mostly near background
# Reference: not given
# Reading: higher = stronger binding
# Residues (chain): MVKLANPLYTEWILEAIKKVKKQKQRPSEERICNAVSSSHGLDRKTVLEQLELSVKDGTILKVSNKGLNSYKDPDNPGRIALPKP
Oligonucleotide,E-score
CCCATACC,0.108
CCAAAGTC,-0.233
AAGGTTGA,-0.114
CGATCGCA,0.0483
GGGGGCGA,0.0969
GTGCCCAA,-0.0146
CTAAGGTC,0.0335
GCGGCGAA,0.394
GAGTAACA,0.0468
GGACGCAC,0.204
GCAAAAGA,0.0196
TACGTACA,-0.0624
CTCGTCCC,-0.00159
ACGGTAAG,0.201
GACTAGTA,0.0016
ACGATCTG,-0.187
AATGGTCA,-0.225
GACCTTGC,-0.042
ACGGGACC,0.287
GCGCTTAA,0.27
ATAGCCCG,0.193
GCACCAGA,-0.142
TGAATTAA,-0.0988
AACGGGGT,0.137
CCGCATTC,0.174

# Mixed results
Oligonucleotide,target,technique,molecule type,setting,measurement,value
AGGGAGGGAGGGAGGGAAAAAAA (RNA; intramolecular G-quadruplex),G3BP1 fragment (Homo sapiens),fluorescence polarization,folded RNA,KCl 150 mM,binding,binds

# Excerpt of the above (block 1):
Modification,mean fluorescence intensity
2'F-ANA at 1 3 4 5 7 10 11 14,44.8 a.u.
2'F-ANA at 1 4 5 7 14,45.9 a.u.
2'F-ANA at 1 2 3 5 6 7 9 11 13 14,191 a.u.
2'F-ANA at 2 3 8 9 10 13 14 15,284 a.u.
2'F-ANA at 1 2 3 4 5 7 9 10 11 12 13,49.2 a.u.
